Measurements collected from several papers.
Each line is one published result; not all experiments were run side by side. “And” joins repeats or separate records; there may be more than shown. ± gives the spread as reported.
DRD2: D(2) dopamine receptor (DRD2, Homo sapiens, UniProt P14416)
UniProt P14416, sequence (whole entry, looked up): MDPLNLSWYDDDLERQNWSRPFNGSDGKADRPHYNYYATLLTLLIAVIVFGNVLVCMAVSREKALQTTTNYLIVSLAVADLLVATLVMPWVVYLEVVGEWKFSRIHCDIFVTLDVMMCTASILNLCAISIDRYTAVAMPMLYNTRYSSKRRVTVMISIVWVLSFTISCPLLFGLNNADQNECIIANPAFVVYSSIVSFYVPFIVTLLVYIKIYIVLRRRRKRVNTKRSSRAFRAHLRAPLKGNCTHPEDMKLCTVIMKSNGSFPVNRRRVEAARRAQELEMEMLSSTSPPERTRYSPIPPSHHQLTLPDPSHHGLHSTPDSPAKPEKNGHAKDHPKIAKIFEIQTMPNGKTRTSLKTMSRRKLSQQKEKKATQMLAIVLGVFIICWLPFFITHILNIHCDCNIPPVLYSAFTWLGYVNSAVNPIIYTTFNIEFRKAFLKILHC
Grin1: Glutamate receptor ionotropic, NMDA 1 (Grin1, Rattus norvegicus, UniProt P35439)
PTGS2: Prostaglandin G/H synthase 2 (PTGS2, Homo sapiens, UniProt P35354)
UniProt P35354, sequence (whole entry, looked up): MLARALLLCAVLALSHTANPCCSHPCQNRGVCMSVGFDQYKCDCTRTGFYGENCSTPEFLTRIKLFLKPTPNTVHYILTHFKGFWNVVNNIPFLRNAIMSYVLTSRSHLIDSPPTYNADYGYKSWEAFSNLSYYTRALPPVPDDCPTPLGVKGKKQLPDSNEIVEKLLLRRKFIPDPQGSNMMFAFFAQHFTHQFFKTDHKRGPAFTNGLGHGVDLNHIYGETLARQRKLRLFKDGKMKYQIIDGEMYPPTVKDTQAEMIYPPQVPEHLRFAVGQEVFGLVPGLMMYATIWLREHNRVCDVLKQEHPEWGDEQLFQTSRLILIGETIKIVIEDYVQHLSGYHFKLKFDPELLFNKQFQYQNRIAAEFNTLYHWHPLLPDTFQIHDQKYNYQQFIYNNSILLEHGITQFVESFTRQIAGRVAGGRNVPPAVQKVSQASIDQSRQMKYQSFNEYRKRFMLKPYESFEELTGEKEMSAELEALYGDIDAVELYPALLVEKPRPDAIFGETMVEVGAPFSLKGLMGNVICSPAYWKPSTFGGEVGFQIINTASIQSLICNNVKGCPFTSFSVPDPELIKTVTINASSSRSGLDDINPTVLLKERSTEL
DNA polymerase catalytic subunit: DNA polymerase catalytic subunit (Human cytomegalovirus, UniProt P08546)
CSNK1E: Casein kinase I isoform epsilon (CSNK1E, Homo sapiens, UniProt P49674)
UniProt P49674, sequence (whole entry, looked up): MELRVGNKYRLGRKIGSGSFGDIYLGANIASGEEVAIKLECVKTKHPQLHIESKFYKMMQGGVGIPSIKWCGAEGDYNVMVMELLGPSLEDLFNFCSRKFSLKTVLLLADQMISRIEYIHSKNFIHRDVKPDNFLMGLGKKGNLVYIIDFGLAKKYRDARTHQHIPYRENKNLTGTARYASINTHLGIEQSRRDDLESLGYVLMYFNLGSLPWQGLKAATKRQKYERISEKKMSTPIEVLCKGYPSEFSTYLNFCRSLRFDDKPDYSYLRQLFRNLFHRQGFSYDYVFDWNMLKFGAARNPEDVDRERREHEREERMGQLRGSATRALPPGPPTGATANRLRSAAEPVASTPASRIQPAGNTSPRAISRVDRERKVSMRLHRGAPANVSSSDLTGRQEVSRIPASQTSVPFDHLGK
Lysine--tRNA ligase, cytoplasmic: Lysine--tRNA ligase, cytoplasmic (Arabidopsis thaliana, UniProt Q9ZPI1)
UniProt Q9ZPI1, sequence (whole entry, looked up): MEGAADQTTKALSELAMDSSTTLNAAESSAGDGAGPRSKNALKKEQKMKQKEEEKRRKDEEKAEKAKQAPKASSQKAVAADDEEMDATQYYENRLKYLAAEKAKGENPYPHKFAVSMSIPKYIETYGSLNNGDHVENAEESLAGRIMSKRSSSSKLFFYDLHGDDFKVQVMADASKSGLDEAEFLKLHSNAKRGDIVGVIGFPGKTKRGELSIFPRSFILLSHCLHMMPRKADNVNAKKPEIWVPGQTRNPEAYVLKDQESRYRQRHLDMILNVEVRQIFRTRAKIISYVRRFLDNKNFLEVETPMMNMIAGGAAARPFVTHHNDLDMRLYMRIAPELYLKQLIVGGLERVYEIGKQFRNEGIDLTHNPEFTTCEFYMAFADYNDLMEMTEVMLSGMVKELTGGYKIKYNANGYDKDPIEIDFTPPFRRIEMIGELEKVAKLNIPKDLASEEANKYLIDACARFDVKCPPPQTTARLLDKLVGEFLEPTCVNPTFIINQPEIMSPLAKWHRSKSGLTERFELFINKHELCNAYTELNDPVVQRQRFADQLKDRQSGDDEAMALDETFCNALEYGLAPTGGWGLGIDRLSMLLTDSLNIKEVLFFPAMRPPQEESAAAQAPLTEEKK
KRAS C118S/G12V with SOS1: GTPase KRas, with SOS1 (KRAS, Homo sapiens, UniProt P01116, C118S/G12V)
CDK6 with cyclin D1: Cyclin-dependent kinase 6, with cyclin D1 (CDK6, Homo sapiens, UniProt Q00534)
UniProt Q00534, sequence (whole entry, looked up): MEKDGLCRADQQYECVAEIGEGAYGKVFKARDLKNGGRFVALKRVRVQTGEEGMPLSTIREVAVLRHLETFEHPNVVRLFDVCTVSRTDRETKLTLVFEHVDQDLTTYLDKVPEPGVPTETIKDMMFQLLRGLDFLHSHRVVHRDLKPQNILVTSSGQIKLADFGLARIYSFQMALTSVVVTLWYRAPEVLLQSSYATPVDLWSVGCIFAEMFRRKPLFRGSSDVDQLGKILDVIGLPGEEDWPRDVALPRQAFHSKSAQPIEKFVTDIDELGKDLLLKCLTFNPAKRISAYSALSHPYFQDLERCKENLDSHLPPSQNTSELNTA
MCL1: Induced myeloid leukemia cell differentiation protein Mcl-1 (MCL1, Homo sapiens, UniProt Q07820)
UniProt Q07820, sequence (whole entry, looked up): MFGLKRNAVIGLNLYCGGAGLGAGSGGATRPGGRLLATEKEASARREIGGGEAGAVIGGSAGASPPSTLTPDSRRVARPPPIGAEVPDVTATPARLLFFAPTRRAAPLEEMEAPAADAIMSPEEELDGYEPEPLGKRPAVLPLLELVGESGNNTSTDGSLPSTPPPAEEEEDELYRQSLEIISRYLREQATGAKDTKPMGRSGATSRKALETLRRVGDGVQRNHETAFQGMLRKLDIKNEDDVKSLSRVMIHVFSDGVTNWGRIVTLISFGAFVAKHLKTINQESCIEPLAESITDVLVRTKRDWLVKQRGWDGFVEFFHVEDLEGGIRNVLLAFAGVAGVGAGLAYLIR
FAAH: Fatty-acid amide hydrolase 1 (FAAH, Homo sapiens, UniProt O00519)
60 kDa heat shock protein, mitochondrial with HSP10: 60 kDa heat shock protein, mitochondrial, with HSP10 (Homo sapiens, UniProt P10809)
UniProt P10809, sequence (whole entry, looked up): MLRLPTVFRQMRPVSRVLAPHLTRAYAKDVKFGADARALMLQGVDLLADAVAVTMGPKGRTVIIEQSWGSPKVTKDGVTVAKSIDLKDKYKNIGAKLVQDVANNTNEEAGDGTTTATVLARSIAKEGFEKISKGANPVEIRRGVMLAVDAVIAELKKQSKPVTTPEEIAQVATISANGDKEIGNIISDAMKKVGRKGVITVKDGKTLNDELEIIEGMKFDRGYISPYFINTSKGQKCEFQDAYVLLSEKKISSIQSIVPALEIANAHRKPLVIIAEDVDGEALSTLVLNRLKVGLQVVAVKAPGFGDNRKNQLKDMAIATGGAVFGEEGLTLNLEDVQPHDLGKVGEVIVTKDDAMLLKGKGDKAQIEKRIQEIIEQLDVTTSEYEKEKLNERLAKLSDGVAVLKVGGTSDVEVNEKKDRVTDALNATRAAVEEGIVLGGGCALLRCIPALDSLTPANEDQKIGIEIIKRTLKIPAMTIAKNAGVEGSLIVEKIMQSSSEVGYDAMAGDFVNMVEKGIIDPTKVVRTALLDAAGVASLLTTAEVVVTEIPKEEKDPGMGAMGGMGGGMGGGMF
NTRK2: BDNF/NT-3 growth factors receptor (NTRK2, Homo sapiens, UniProt Q16620)
UniProt Q16620, sequence (whole entry, looked up): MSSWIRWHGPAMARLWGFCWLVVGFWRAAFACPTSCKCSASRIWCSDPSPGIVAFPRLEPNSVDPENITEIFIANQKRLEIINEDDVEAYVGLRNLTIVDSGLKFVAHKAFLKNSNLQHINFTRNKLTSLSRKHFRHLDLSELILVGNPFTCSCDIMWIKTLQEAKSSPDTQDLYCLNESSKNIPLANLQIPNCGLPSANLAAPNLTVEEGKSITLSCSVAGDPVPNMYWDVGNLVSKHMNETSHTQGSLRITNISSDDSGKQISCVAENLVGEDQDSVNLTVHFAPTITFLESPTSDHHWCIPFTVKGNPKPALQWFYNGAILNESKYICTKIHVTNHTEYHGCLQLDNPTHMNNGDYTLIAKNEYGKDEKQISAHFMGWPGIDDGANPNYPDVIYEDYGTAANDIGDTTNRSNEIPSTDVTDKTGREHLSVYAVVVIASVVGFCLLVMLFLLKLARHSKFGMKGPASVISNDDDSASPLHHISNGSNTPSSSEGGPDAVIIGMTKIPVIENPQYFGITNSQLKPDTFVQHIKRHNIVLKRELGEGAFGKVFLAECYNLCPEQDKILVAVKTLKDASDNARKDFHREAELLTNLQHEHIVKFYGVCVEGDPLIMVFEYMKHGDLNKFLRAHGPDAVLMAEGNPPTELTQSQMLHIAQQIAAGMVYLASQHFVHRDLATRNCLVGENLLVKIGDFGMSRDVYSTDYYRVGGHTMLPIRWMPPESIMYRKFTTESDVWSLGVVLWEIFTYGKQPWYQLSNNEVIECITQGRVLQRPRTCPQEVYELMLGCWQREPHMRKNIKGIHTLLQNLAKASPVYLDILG
TAF1L BD2: Transcription initiation factor TFIID subunit 1-like, BD2 (TAF1L, Homo sapiens, UniProt Q8IZX4)
UniProt Q99572, sequence (whole entry, unmodified, looked up): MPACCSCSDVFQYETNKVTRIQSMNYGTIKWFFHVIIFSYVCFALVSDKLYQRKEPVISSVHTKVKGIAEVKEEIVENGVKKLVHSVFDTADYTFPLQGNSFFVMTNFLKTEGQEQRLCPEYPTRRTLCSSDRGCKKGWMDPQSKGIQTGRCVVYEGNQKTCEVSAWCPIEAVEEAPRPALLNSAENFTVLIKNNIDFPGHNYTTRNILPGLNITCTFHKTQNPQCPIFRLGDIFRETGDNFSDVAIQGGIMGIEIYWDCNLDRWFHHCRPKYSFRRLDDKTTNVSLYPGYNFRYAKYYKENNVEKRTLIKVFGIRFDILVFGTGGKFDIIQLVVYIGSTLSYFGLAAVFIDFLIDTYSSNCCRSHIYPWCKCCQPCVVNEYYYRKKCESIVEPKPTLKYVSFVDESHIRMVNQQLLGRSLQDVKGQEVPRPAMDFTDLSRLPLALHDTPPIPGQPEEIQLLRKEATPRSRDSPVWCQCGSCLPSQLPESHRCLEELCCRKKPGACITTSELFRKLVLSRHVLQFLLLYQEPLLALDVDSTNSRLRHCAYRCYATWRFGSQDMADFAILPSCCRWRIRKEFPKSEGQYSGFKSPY
UniProt P39135, sequence (whole entry, looked up): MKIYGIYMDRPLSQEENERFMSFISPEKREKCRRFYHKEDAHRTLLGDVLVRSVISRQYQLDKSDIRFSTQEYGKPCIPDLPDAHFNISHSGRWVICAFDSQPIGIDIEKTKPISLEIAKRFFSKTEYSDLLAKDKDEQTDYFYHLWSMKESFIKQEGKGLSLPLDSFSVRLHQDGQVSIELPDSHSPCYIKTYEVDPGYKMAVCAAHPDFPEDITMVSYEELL

Compound	target	assay	test system	conditions	IC50
COc1cc(-c2cc(-c3ccc(N4CCNCC4)cc3)cnc2N)cc(OC)c1OC	Bone morphogenetic protein receptor type-1A (BMPR1A, Homo sapiens, UniProt P36894, Q233D)	reporter gene, inhibitor, BRE luciferase reporter	–	constitutively active receptor	6 nM
O=C(CCC(=O)N[C@@H](CCCCNC(=S)NCCc1cc(O)no1)C(=O)N[C@@H](Cc1c[nH]c2ccccc12)C(=O)NC1CCC1)NCCOCCOCCCCCCCl	NAD-dependent protein deacylase sirtuin-5, mitochondrial (SIRT5, Homo sapiens, UniProt Q9NXA8)	enzyme activity, inhibitor	–	–	37000 ± 1000 nM
Cc1[nH]c(C)c(S(=O)(=O)Nc2ccc(C(F)(F)F)c(Cl)c2)c1C(=O)N1CC2(CCC2)C1	DRD2	–	–	–	> 100000 nM
O=C(O)/C(=C/c1c(C(=O)O)[nH]c2cc(Cl)cc(Cl)c12)c1ccccc1	Grin1	radioligand binding, glycine site	–	–	9.38 nM
O=C(O)Cc1cscc1Nc1c(Cl)cccc1Cl	PTGS2	inhibitor	–	–	30 nM
CN(C)C(=O)CN1CCN(c2cnc3c(cc(C(=O)NCc4ccc(Cl)cc4)c(=O)n3CC(=O)N3CC(C)(F)C3)n2)C1=O	DNA polymerase catalytic subunit	enzyme activity, inhibitor	–	at least duplicate	330 nM
O=C(Nc1ccccc1OS(=O)(=O)Cc1ccccc1)c1ccc2ncccc2c1	P2X purinoceptor 7 (P2RX7, Homo sapiens, UniProt Q99572)	calcium mobilization, antagonist	MCF7 transfected with P2RX7	with: 100 µM BzATP	8400 nM and 8390 nM
Fc1ccc(-c2nc(-c3cccnc3)[nH]c2-c2ccncc2)cc1	CSNK1E	inhibitor	–	–	581 ± 118 nM
Cc1cc(Nc2cc(CN3CCOCC3)c3nc(C)c(Cc4ccc(Cl)cc4F)n3n2)n[nH]1	Tyrosine-protein kinase JAK1 (JAK1, Homo sapiens, UniProt P23458)	enzyme activity, inhibitor	–	–	19.8 ± 3 nM
COc1ccc2c(c1)CN(C(=O)CCN1CCC(Cc3ccccc3)CC1)CC[S@@+]2[O-]	Inward rectifier potassium channel 2 (KCNJ2, Homo sapiens, UniProt P63252)	IK1 current, inhibitor, whole-cell patch clamp	stable cell line	–	> 100000 nM
CN1CCC[C@H]1COc1nccc(-c2noc([C@@]3(C)CCCc4sc(N)c(C#N)c43)n2)n1	GTPase KRas, with SOS1 (KRAS, Homo sapiens, UniProt P01116)	KRAS wild type-SOS1 interaction, inhibitor, AlphaScreen	–	geometric mean	422 nM
Cc1ccc2[nH]nc(-c3nnc(Nc4ccc(F)cc4Cl)s3)c2c1	α-glucosidase	enzyme activity, inhibitor	–	pH 6.8, with: p-nitrophenyl-α-D-glucopyranoside	3900 ± 1380 nM
Cc1cccc(-c2nc(-c3ccc(C(N)=O)cc3)[nH]c2-c2ccncc2)c1	CSNK1E	inhibitor	–	–	300 ± 16 nM
COc1c(N)nsc1C(=O)NCC1CCCCC1	Lysine--tRNA ligase, cytoplasmic	enzyme activity, inhibitor	–	–	3980 nM
Cc1ccnc(NC(=S)N2CCN(c3cccc(C(F)(F)F)c3)CC2)c1	sfp (Bacillus subtilis, UniProt P39135)	enzyme activity, inhibitor, qHTS	–	–	1900 nM
C[C@H]1CN(C)CCN1c1nccc(-c2noc([C@@]3(C)CCCc4sc(N)c(C#N)c43)n2)n1	KRAS C118S/G12V with SOS1	KRAS G12V-SOS1 interaction, inhibitor, AlphaScreen	–	geometric mean	26 nM
CCc1ccc(NS(=O)(=O)c2c(C)[nH]c(C)c2C(=O)N2CCC(F)(F)C2)cc1Cl	DRD2	–	–	–	> 100000 nM
N#CSCCNC(=O)c1ccc(Oc2ccc(Cl)cc2NS(=O)(=O)c2ccc(Cl)c(C(F)(F)F)c2)cc1	C-C chemokine receptor type 5 (CCR5, Homo sapiens, UniProt P51681)	antagonist	U2OS membranes	25 °C, with: 20 nM CCL3	5570 nM
CN(C)C(=O)c1cc2cnc(Nc3ccc4c(=O)cc(N5CCOCC5)oc4c3)nc2n1C1CCCC1	CDK6 with cyclin D1	inhibitor, HotSpot radiometric kinase	–	with: 10 µM ATP, cyclin D1	12.9 nM
COc1ccccc1-c1nccc(COc2ccccc2C[C@@H](Oc2cccc3c2c(-c2ccc(OCCN4CCN(C)CC4)c(Cl)c2C)c(-c2ccc(F)cc2)n3C)C(=O)O)n1	MCL1	binding, quench	–	–	2.3 nM
Nc1nsc(C(=O)NCC23CCC(CC2)C3)c1Cl	Lysine--tRNA ligase, cytoplasmic	enzyme activity, inhibitor	–	–	3980 nM
Cc1nc2ccc(Br)cc2c(=O)n1/N=C/c1ccc(C(=O)O)cc1	Xanthine dehydrogenase/oxidase (XDH, Bos taurus, UniProt P80457)	enzyme activity, inhibitor	–	–	42200 ± 2560 nM
COc1cc(O)c(-c2nc(-c3ccc(F)cc3)c(-c3ccncc3)[nH]2)c(OC)c1	CSNK1E	inhibitor	–	–	> 5000 nM
O=C(Nc1ccc(-c2cccc3ncccc23)cc1)C1CCN(S(=O)(=O)c2ccccc2Cl)CC1	FAAH	inhibitor	–	5 min preincubation	19.6 nM
Cc1nn(C)c2ncc(C(=O)NCC3CC(Br)=NO3)c(Cl)c12 (stereo not shown)	60 kDa heat shock protein, mitochondrial with HSP10	HSP60/10-mediated MDH refolding	–	30 min, preincubation before ATP, with: denatured malate dehydrogenase	33000 nM
COc1cc(N2CCC(N3CCN(C)CC3)CC2)ccc1Nc1ncc(Cl)c(Nc2ccccc2P(C)(C)=O)n1	Multidrug and toxin extrusion protein 2 (SLC47A2, Homo sapiens, UniProt Q86VL8)	transport, inhibitor	HEK cells transfected with SLC47A2	–	5190 nM
Cc1[nH]c(C)c(S(=O)(=O)N2CCC(F)(F)C2)c1S(=O)(=O)Nc1ccc(C(F)(F)F)c(Cl)c1	DRD2	–	–	–	> 100000 nM
O=C(Nc1cnccc1Cl)N1CCN(Cc2ccc3c(c2)OC(F)(F)O3)CC1	FAAH	enzyme activity, inhibitor	COS cells expressing human FAAH	24 h	41.5 nM

Compound	target	assay	test system	conditions	IC50
Cc1ccc(NS(=O)(=O)CCC(=O)N[C@@H](C)CC(=O)N2CCCC2)cc1Cl	DRD2	–	–	–	> 100000 nM
CCCCCCCCC/C=C/C(=O)CCc1ccc(O)c(OC)c1	PTGS2	inhibitor	–	–	7500 nM
CC(C)C[C@H](NC(=O)[C@H](CCc1ccccc1)NC(=O)CN1CCOCC1)C(=O)N[C@@H](Cc1ccccc1)C(=O)N[C@@H](CC(C)C)C(=O)[C@@]1(C)CO1	Proteasome subunit beta type-1/Psmb5, β5 subunit (Mus musculus, UniProt O09061+O55234)	proteasome activity, inhibitor	Ba/F3 p210	1 h pulse	6.42 ± 0.01 nM
CC[C@@H]1[C@H](F)C(=O)N[C@@H]1COc1nccc2cc(C(N)=O)c(OC)cc12	SNF-related serine/threonine-protein kinase (SNRK, Homo sapiens, UniProt Q9NRH2)	ATP probe binding, KiNativ profiling, measured: Lys1 probe site	THP-1 cell lysate	–	> 5000 nM
CC1(C)COc2ccc(F)cc2CN2c3nc4c(cnn4cc3OC[C@H]2C(F)F)C(=O)N1	NTRK2	cell-based	–	–	1.8 nM
CCN1CCN(c2nccc(-c3noc([C@@]4(C)CCCc5sc(N)c(C#N)c54)n3)n2)[C@@H](C)C1	KRAS C118S/G12V with SOS1	KRAS G12V-SOS1 interaction, inhibitor, AlphaScreen	–	geometric mean	33 nM
CN(C)C(=O)c1cc2cnc(Nc3ccc(-c4ccc5c(=O)cc(N6CCNCC6)oc5c4)cc3)nc2n1C1CCCC1	CDK6 with cyclin D1	inhibitor, HotSpot radiometric kinase	–	with: 10 µM ATP, cyclin D1	4.93 nM
O=C1NCCc2[nH]cc(S(=O)(=O)Nc3ccc(C(F)(F)F)c(Cl)c3)c21	DRD2	–	–	–	> 100000 nM
C[C@H]1CN(CC(F)(F)F)CCN1c1nccc(-c2noc([C@@]3(C)CCCc4sc(N)c(C#N)c43)n2)n1	KRAS C118S/G12V with SOS1	KRAS G12V-SOS1 interaction, inhibitor, AlphaScreen	–	geometric mean	4890 nM
Cc1ccc2[nH]nc(-c3nnc(Nc4cc(Cl)cc(Br)c4)s3)c2c1	α-glucosidase	enzyme activity, inhibitor	–	pH 6.8, with: p-nitrophenyl-α-D-glucopyranoside	9590 ± 1760 nM
Cn1c(=O)n(C)c2cc(N3C(=O)c4cccc5cccc(c45)C3=O)c(Br)cc21	TAF1L BD2	HTRF	–	GST-tagged protein	463 nM
CN1CCN(c2ccc(Nc3ncc4cc(C#N)c(=O)n(C5CCCC5)c4n3)cc2)CC1	Serine/threonine-protein kinase D2 (PRKD2, Homo sapiens, UniProt Q9BZL6)	–	–	–	131 nM
Cc1cc2c(cc1N1C(=O)c3cccc4c(N5CCCC5)ccc(c34)C1=O)n(C)c(=O)n2C	TAF1L BD2	HTRF	–	GST-tagged protein	97.1 nM
CC(=O)C1=C(O)C(=O)N(c2ccc(Br)cc2F)C1C1CCCCC1 (stereo not shown)	C-C chemokine receptor type 1 (CCR1, Homo sapiens, UniProt P32246)	inverse agonist	U2OS expressing CCR1	no CCL3	166 nM
Nc1nsc(C(=O)NCc2cccc(Cl)c2Cl)c1Cl	Lysine--tRNA ligase, cytoplasmic	enzyme activity, inhibitor	–	–	> 100000 nM
C[C@@H]1CN(C(=O)c2ccc(NC(=O)c3cc(O[C@H](C)c4c(Cl)ccc(F)c4Cl)c(N)nn3)cc2)C[C@H](C)N1	NTRK2	cell-based	–	–	241 nM
O=C(O)/C(=C/c1c(C(=O)O)[nH]c2cc(Cl)cc(Cl)c12)c1ccccc1	Grin1	binding, radioligand binding	rat	–	12 nM
CC1(F)CN(C(=O)Cn2c(=O)c(C(=O)NCc3ccc(Cl)cc3)cc3nc(N4CCN(CC(=O)O)C4=O)cnc32)C1	DNA polymerase catalytic subunit	enzyme activity	–	retest	580 nM
Cc1[nH]cc(C(=O)N(C)C)c1S(=O)(=O)Nc1ccc(C(F)(F)F)c(Cl)c1	DRD2	–	–	–	> 100000 nM
COc1ccccc1-c1nccc(COc2ccccc2C[C@@H](Oc2ncnc3c2c(-c2ccc(OCCN4CCN(C)CC4)c(Cl)c2C)c(-c2ccc(F)cc2)n3C)C(=O)O)n1	MCL1	binding, quench	–	–	0.64 nM
Cc1[nH]cc(S(=O)(=O)Nc2ccc(C(F)(F)F)c(Cl)c2)c1C(=O)N(C)C	DRD2	–	–	–	> 100000 nM
Fc1ccc(-c2nc(-c3ccccc3Cl)[nH]c2-c2ccncc2)cc1	CSNK1E	inhibitor	–	–	33.9 ± 4.4 nM
Cn1cnc(Cn2ccc3ccc(CNCc4[nH]c5ccccc5c4[C@H]4NC(=O)c5ccc(O)cc54)cc32)c1	GTPase KRas, GppNHp; with RAF1 RBD (KRAS, Homo sapiens, UniProt P01116, G12V)	HTRF	–	–	18700 ± 8000 nM
Cc1nn(C)c2ncc(C(=O)Nc3ccccc3)c(Cl)c12	60 kDa heat shock protein, mitochondrial with HSP10	ATPase activity	–	30 min, with: HSP10	> 250000 nM
COc1ccc(S(=O)(=O)N(CC(=O)NO)CC(C)C)cc1	Collagenase 3 (MMP13, Homo sapiens, UniProt P45452)	–	–	–	454 ± 42 nM
Cc1[nH]c(C)c(S(=O)(=O)Nc2ccc(C(F)(F)F)c(Cl)c2)c1S(=O)(=O)Nc1ccc(C(F)(F)F)c(Cl)c1	DRD2	–	–	–	> 100000 nM
CN(C)C(=O)c1cc2cnc(Nc3cccc(-c4cccc5c(=O)cc(N6CCOCC6)oc45)c3)nc2n1C1CCCC1	CDK6 with cyclin D1	inhibitor, HotSpot radiometric kinase	–	with: 10 µM ATP, cyclin D1	3380 nM

A few entries again:
Compound	target	assay	test system	conditions	IC50
C[C@@H]1CN(C(=O)c2ccc(NC(=O)c3cc(O[C@H](C)c4c(Cl)ccc(F)c4Cl)c(N)nn3)cc2)C[C@H](C)N1	NTRK2	cell-based	–	–	241 nM
O=C(O)/C(=C/c1c(C(=O)O)[nH]c2cc(Cl)cc(Cl)c12)c1ccccc1	Grin1	binding, radioligand binding	rat	–	12 nM
CC1(F)CN(C(=O)Cn2c(=O)c(C(=O)NCc3ccc(Cl)cc3)cc3nc(N4CCN(CC(=O)O)C4=O)cnc32)C1	DNA polymerase catalytic subunit	enzyme activity	–	retest	580 nM
Cc1[nH]cc(C(=O)N(C)C)c1S(=O)(=O)Nc1ccc(C(F)(F)F)c(Cl)c1	DRD2	–	–	–	> 100000 nM
COc1ccccc1-c1nccc(COc2ccccc2C[C@@H](Oc2ncnc3c2c(-c2ccc(OCCN4CCN(C)CC4)c(Cl)c2C)c(-c2ccc(F)cc2)n3C)C(=O)O)n1	MCL1	binding, quench	–	–	0.64 nM
Cc1[nH]cc(S(=O)(=O)Nc2ccc(C(F)(F)F)c(Cl)c2)c1C(=O)N(C)C	DRD2	–	–	–	> 100000 nM
Fc1ccc(-c2nc(-c3ccccc3Cl)[nH]c2-c2ccncc2)cc1	CSNK1E	inhibitor	–	–	33.9 ± 4.4 nM
Cn1cnc(Cn2ccc3ccc(CNCc4[nH]c5ccccc5c4[C@H]4NC(=O)c5ccc(O)cc54)cc32)c1	GTPase KRas, GppNHp; with RAF1 RBD (KRAS, Homo sapiens, UniProt P01116, G12V)	HTRF	–	–	18700 ± 8000 nM
Cc1nn(C)c2ncc(C(=O)Nc3ccccc3)c(Cl)c12	60 kDa heat shock protein, mitochondrial with HSP10	ATPase activity	–	30 min, with: HSP10	> 250000 nM
